Measured values pooled from the literature.
Parts stem from different laboratories: compare values within a part only. “And” joins repeats or separate records; there may be more than shown. pIC50: −log10 of the molar value. Values after ≈ are worked out from the molar mass of the structure shown.
UniProt Q15759, sequence (whole entry, looked up): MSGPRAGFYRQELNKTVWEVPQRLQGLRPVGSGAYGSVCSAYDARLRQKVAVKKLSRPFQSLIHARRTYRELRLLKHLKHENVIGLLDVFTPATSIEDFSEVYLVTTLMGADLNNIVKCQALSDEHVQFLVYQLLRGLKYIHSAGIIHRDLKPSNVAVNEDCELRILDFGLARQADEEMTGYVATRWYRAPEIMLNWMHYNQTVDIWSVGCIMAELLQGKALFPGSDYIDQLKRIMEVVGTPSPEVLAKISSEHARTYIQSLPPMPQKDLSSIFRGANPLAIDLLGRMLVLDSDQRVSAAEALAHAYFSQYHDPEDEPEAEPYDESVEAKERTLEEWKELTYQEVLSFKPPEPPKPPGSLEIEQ
UniProt P29323, sequence (whole entry, looked up): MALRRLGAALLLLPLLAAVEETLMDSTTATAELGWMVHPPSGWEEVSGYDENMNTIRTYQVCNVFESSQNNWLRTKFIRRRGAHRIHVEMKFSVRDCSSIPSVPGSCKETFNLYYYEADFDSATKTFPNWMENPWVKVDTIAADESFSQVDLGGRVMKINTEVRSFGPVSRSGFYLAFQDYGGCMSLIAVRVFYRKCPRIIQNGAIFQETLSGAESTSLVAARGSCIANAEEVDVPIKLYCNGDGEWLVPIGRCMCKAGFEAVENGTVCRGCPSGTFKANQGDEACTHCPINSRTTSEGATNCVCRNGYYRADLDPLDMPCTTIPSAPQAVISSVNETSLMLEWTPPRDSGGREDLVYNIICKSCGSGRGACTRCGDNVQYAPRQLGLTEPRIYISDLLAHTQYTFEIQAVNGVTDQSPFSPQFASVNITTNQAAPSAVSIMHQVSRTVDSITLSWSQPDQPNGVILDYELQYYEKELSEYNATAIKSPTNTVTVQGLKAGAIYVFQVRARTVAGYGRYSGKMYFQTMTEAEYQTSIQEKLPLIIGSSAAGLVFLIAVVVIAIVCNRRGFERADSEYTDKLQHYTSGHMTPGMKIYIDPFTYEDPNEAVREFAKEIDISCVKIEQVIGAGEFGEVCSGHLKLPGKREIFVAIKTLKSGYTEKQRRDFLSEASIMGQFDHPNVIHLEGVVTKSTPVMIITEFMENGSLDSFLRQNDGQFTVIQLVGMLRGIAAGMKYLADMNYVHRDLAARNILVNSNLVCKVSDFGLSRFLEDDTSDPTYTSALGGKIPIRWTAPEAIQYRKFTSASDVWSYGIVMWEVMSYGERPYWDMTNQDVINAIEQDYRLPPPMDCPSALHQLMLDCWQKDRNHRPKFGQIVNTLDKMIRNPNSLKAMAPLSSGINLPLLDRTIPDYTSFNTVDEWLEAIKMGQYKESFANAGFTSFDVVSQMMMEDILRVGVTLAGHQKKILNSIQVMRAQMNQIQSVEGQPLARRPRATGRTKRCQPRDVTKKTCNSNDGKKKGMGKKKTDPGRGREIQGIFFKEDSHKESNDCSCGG
UniProt Q9NRH2, sequence (whole entry, looked up): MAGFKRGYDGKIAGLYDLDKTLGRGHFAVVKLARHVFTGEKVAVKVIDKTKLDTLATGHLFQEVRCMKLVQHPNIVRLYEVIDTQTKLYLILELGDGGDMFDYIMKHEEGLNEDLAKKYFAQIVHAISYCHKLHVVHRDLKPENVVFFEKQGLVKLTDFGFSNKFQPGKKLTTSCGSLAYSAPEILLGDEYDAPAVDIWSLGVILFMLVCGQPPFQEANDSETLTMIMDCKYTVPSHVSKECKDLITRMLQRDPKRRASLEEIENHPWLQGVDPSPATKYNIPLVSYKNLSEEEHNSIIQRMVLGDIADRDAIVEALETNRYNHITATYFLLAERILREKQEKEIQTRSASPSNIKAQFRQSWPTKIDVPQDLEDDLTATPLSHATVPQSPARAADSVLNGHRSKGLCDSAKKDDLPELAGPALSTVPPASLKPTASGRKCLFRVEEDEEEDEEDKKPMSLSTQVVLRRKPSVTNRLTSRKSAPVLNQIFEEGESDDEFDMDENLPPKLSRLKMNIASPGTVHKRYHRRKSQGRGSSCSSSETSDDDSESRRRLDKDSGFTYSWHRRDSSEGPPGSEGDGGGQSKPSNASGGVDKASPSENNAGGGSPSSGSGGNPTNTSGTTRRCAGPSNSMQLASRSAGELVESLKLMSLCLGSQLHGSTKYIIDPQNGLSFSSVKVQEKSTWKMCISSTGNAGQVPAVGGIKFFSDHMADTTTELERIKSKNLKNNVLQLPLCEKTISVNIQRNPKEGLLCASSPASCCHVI
UniProt P42336, sequence (whole entry, unmodified, looked up): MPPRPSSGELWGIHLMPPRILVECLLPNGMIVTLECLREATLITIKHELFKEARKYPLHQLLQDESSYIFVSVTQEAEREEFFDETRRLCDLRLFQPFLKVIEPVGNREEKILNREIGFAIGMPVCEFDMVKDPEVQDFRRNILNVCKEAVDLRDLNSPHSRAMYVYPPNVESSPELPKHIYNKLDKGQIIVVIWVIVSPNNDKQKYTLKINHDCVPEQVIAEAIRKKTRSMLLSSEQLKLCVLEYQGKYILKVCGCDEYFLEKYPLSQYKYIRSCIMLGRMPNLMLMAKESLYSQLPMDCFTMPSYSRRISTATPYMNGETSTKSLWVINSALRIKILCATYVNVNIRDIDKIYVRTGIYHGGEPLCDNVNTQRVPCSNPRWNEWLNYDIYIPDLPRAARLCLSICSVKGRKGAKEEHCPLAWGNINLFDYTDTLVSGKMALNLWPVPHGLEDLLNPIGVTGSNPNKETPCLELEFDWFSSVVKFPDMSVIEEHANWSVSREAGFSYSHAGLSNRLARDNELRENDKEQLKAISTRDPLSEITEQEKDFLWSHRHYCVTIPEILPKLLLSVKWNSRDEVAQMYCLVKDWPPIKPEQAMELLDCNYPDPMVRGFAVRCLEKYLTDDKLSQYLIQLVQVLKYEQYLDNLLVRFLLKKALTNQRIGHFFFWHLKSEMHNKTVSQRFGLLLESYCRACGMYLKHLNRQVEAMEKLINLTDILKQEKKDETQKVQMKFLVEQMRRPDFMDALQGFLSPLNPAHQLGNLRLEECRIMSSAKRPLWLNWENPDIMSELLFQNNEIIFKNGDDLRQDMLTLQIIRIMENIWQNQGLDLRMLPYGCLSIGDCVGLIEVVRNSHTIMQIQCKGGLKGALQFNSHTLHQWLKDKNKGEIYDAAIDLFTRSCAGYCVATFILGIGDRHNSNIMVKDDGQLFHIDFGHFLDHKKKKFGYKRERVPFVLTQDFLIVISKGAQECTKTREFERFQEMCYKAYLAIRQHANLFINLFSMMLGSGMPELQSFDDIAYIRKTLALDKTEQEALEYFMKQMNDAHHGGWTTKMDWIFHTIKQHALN
UniProt P04049, sequence (whole entry, looked up): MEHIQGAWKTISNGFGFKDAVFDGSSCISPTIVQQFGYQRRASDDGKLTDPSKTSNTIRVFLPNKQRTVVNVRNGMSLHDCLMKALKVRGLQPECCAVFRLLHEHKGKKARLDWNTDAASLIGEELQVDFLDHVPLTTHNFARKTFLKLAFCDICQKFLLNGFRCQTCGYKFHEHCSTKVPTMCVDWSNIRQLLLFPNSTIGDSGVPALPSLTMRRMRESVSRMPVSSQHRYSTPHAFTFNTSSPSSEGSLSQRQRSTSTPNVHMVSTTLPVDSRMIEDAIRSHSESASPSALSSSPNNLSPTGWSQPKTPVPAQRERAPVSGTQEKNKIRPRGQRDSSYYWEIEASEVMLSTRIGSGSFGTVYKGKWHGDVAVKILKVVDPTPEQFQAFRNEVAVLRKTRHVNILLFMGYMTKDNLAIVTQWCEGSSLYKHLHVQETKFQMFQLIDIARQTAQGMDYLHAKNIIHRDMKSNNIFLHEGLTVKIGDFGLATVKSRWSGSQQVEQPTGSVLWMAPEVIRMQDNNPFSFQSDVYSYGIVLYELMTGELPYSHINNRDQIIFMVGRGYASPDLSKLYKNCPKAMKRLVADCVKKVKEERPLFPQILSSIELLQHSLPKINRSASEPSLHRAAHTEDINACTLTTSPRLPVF
UniProt Q13131, sequence (whole entry, looked up): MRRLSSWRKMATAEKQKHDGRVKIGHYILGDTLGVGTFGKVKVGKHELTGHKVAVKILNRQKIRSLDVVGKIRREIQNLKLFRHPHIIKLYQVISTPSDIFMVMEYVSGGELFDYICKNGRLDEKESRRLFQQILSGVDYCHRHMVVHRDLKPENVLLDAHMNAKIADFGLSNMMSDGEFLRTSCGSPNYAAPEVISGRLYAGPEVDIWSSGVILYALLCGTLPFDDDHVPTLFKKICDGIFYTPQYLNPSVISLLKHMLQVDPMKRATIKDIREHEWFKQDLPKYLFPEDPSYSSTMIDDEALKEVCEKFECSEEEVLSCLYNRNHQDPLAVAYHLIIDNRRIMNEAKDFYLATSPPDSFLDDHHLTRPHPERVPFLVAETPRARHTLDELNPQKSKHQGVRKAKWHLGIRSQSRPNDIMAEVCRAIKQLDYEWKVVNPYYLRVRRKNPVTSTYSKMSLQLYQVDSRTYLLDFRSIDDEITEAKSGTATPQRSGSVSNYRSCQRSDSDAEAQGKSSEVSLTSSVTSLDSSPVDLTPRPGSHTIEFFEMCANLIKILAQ
UniProt P78356, sequence (whole entry, looked up): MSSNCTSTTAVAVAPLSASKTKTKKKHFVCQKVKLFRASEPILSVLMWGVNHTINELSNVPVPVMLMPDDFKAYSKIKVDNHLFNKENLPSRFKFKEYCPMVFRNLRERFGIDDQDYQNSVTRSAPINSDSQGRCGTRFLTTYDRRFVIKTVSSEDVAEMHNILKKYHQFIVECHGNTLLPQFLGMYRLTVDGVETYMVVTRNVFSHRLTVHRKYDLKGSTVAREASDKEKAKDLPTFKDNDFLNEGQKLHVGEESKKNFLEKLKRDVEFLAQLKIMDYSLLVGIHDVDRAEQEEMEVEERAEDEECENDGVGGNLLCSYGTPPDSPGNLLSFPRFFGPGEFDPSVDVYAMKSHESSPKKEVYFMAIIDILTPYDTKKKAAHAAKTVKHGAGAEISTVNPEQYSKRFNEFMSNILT

Sample 1
Organism: Leishmania donovani
Read-out: parasite growth
Method: resazurin
Notes: promastigote
Compound | pIC50
COc1ccc(Nc2c3c(nc4ccccc24)CCC3)cc1 | 5.48
COc1ccccc1Nc1c2c(nc3ccccc13)CCC2 | 5.39
c1ccc2c(Nc3ccc4c(c3)OCCO4)c3c(nc2c1)CCC3 | 5.74
COC(=O)c1ccc(Nc2c3c(nc4ccccc24)CCC3)cc1 | 5.27
CC(=O)c1cccc(Nc2c3c(nc4ccccc24)CCC3)c1 | 5.45
COC(=O)c1cccc(Nc2c3c(nc4ccccc24)CCC3)c1 | 5.33
Clc1ccc2nc3c(c(Nc4ccc5c(c4)OCCO5)c2c1)CCC3 | 6.15

Sample 2
Structure (SMILES): COc1cc(-c2nc3ccc(C(=O)NCCCN4CCN(c5cccc(C)c5C)CC4)cc3n2C2CCC2)cc(OC)c1OC
Read-out: binding
Method: competition with immobilised ligand
Concentration: 1 µM
target | remaining binding [%]
Tyrosine-protein kinase ZAP-70 (ZAP70, Homo sapiens, UniProt P43403) | 86
Ephrin type-B receptor 2 (EPHB2, Homo sapiens, UniProt P29323) | 86
5'-AMP-activated protein kinase catalytic subunit alpha-1 (PRKAA1, Homo sapiens, UniProt Q13131) | 87
Mitogen-activated protein kinase 11 (MAPK11, Homo sapiens, UniProt Q15759) | 85
Phosphatidylinositol 4,5-bisphosphate 3-kinase catalytic subunit alpha isoform (PIK3CA, Homo sapiens, UniProt P42336, H1047L) | 84
SNF-related serine/threonine-protein kinase (SNRK, Homo sapiens, UniProt Q9NRH2) | 95
Phosphatidylinositol 5-phosphate 4-kinase type-2 beta (PIP4K2B, Homo sapiens, UniProt P78356) | 100
RAF proto-oncogene serine/threonine-protein kinase (RAF1, Homo sapiens, UniProt P04049) | 90

Single results of other studies
SMILES | target or system | test | test system | conditions | measurement | result
CC(C)C[C@@H]1NC(=O)[C@@H](N(C)C(=O)[C@@H](NC(=O)[C@@H]2C[C@@H](F)CN2C(=O)C2(C(F)(F)F)CC(F)(F)C2)C2CC2)CCCCCCCN(C)C(=O)[C@H](Cc2cc(Cl)cnc2OC2CC2)N(C)C1=O |  | immunohistochemistry | mice, sample A PDX, tumour | oral, 100 mg/kg three times daily for 4 d, 8 h after last dose | phospho-KNL1 positive cells | 4% and 3.1% and 2.2%
Cn1cc(-c2cccc(CN3CCC4(CC3)COc3c4ccc4c3CN([C@@H]3CCC(=O)NC3=O)C4=O)c2)cn1 |  |  | FaSSIF |  | solubility | 175 µM (≈ 92.1 µg/mL)
C=CCN1C(=O)C(O)(C(=O)O)Oc2cc(F)ccc21 (stereo not drawn) | Triticum aestivum | fresh weight |  | soil surface spray, 150 g ai/ha, 21 days, pre-emergence crop safety | inhibition | 5.5% and 6% and 8.5%

A few entries again (sample 1):
Compound | pIC50
CC(=O)c1cccc(Nc2c3c(nc4ccccc24)CCC3)c1 | 5.45
COC(=O)c1cccc(Nc2c3c(nc4ccccc24)CCC3)c1 | 5.33
